Results of several laboratories.
Lines come from different studies, so protocols differ. “And” joins repeats or separate records; there may be more than shown. Numbers after ± are the reported error.

`CC[C@H](C)[C@H](NC(=O)[C@H](CCCNC(=N)N)NC(=O)[C@H](CCCCN)NC(=O)[C@H](Cc1ccc(O)cc1)NC(=O)[C@H](CC(=O)O)NC(=O)[C@H](C)NC(=O)CNC(=O)CCOCCOCCOCCNC(=O)CN1CCN(CC(=O)O)CCN(CC(=O)O)CCN(CC(=O)O)CC1)C(=O)N[C@H](C(=O)N[C@@H](CC(C)C)C(=O)N[C@@H](CCCCN)C(=O)N[C@H](C(=O)N[C@@H](CC(N)=O)C(N)=O)C(C)C)[C@@H](C)O` [copper-64 labelled] gave a tissue uptake of 1.55 ± 0.683 %ID/g (C57BL/6J mouse male, B16-F10 tumour, small intestine; intravenous, 1.85 MBq, 20 min, 67Ga complex).
The tissue uptake of `CN1Cc2cc(Cl)ccc2-n2c(nnc2C2CCN(c3cccc([18F])n3)CC2)C1` is reported as 6.54 ± 2.65 %ID/g (C57BL/6 mouse male, adrenal gland; intravenous, 3.7 MBq, 15 min).
`CSCC[C@H](NC(=O)CNC(=O)[C@H](CCCCN)NC(=O)[C@H](CC(C)C)NC(=O)[C@@H]1CCCN1C(=O)[C@H](CO)NC(=O)[C@H](Cc1c[nH]cn1)NC(=O)[C@H](Cc1c[nH]c2ccccc12)NC(=O)[C@H](CCCNC(=N)N)NC(=O)[C@H](CC(C)C)NC(=O)[C@H](CCCNC(=N)N)NC(=O)[C@H](Cc1c[nH]c2ccccc12)NC(=O)[C@H](CS)NC(=O)CCCCCNC(=O)CN1CCN(CC(=O)O)CCN(CC(=O)O)CCN(CC(=O)O)CC1)C(=O)O` [copper-64 labelled] gave a tissue uptake of 1.54 %ID/g (BALB/c nude mouse, Huh-7 tumour, lymph node; intravenous, 18 h, ex vivo biodistribution).
For `CSCC[C@H](N)C(=O)N[C@@H](C)C(=O)N[C@@H](CCCNC(=N)N)C(=O)N[C@@H](CCCNC(=N)N)C(=O)N[C@@H](CC(=O)O)C(=O)N[C@@H](CCCCN)C(=O)N[C@H](C(=O)N[C@@H](CC(=O)O)C(=O)N[C@@H](Cc1ccccc1)C(=O)N[C@@H](C)C(=O)N[C@@H](CCCNC(=N)N)C(=O)N[C@@H](CCCNC(=N)N)C(=O)N[C@@H](CCCNC(=N)N)C(=O)N[C@@H](CCCNC(=N)N)C(=O)NCCCCCC(=O)NCCCCC(NC(=O)CCCCCNC(=O)[C@H](CCCNC(=N)N)NC(=O)[C@H](CCCNC(=N)N)NC(=O)[C@H](CCCNC(=N)N)NC(=O)[C@H](CCCNC(=N)N)NC(=O)[C@H](C)NC(=O)[C@H](Cc1ccccc1)NC(=O)[C@H](CC(=O)O)NC(=O)[C@@H](NC(=O)[C@H](CCCCN)NC(=O)[C@H](CC(=O)O)NC(=O)[C@H](CCCNC(=N)N)NC(=O)[C@H](CCCNC(=N)N)NC(=O)[C@H](C)NC(=O)[C@@H](N)CCSC)[C@@H](C)O)C(=O)NCCCCC(NC(=O)C(CCCCNC(=O)CCCCCNC(=O)[C@H](CCCNC(=N)N)NC(=O)[C@H](CCCNC(=N)N)NC(=O)[C@H](CCCNC(=N)N)NC(=O)[C@H](CCCNC(=N)N)NC(=O)[C@H](C)NC(=O)[C@H](Cc1ccccc1)NC(=O)[C@H](CC(=O)O)NC(=O)[C@@H](NC(=O)[C@H](CCCCN)NC(=O)[C@H](CC(=O)O)NC(=O)[C@H](CCCNC(=N)N)NC(=O)[C@H](CCCNC(=N)N)NC(=O)[C@H](C)NC(=O)[C@@H](N)CCSC)[C@@H](C)O)NC(=O)CCCCCNC(=O)[C@H](CCCNC(=N)N)NC(=O)[C@H](CCCNC(=N)N)NC(=O)[C@H](CCCNC(=N)N)NC(=O)[C@H](CCCNC(=N)N)NC(=O)[C@H](C)NC(=O)[C@H](Cc1ccccc1)NC(=O)[C@H](CC(=O)O)NC(=O)[C@@H](NC(=O)[C@H](CCCCN)NC(=O)[C@H](CC(=O)O)NC(=O)[C@H](CCCNC(=N)N)NC(=O)[C@H](CCCNC(=N)N)NC(=O)[C@H](C)NC(=O)[C@@H](N)CCSC)[C@@H](C)O)C(N)=O)[C@@H](C)O` (some centres unmarked), the tissue distribution was 9.9% and 8.33% and 15.9% (mouse C57BL/6 female, small intestine; 6 h, radioiodinated peptide; relative to: total radioactivity).
For `CC[C@H](C)[C@H](NC(=O)[C@H](CCCNC(=N)N)NC(=O)[C@H](CCCCN)NC(=O)[C@H](Cc1ccc(O)cc1)NC(=O)[C@H](CC(=O)O)NC(=O)[C@H](C)NC(=O)CNC(=O)CCOCCOCCOCCNC(=O)CN1CCN(CC(=O)O)CCN(CC(=O)O)CCN(CC(=O)O)CC1)C(=O)N[C@H](C(=O)N[C@H](C(=O)N[C@@H](CCCCN)C(=O)N[C@H](C(=O)N[C@@H](CC(N)=O)C(N)=O)C(C)C)C(C)C)[C@@H](C)O` [copper-64 labelled], the tissue uptake was 2.74 ± 0.067 %ID/g (C57BL/6J mouse male, B16-F10 tumour, small intestine; intravenous, 1.85 MBq, 40 min, 67Ga complex).
For `[2H]C([2H])([18F])[C@]([2H])(N)C(=O)O`, the tissue uptake was ≤ 1 %ID/g (athymic nude mouse, non-bone tissues; 110 min).
The tissue uptake of `CC[C@H](C)[C@H](NC(=O)[C@H](CCCCN)NC(=O)CNC(=O)[C@H](CC(C)C)NC(=O)[C@H](Cc1ccccc1)NC(=O)[C@H](CCCCN)NC(=O)[C@H](CO)NC(=O)[C@H](Cc1ccccc1)NC(=O)[C@H](Cc1c[nH]c2ccccc12)NC(=O)[C@H](CCC(N)=O)NC(=O)[C@@H](NC(=O)[C@H](Cc1ccccc1)NC(=O)CCCCCNC(=O)CN1CCN(CC(=O)O)CCN(CC(=O)O)CCN(CC(=O)O)CC1)C(C)C)C(=O)N[C@@H](CCC(=O)O)C(=O)N1CCC[C@H]1C(=O)N[C@@H](CC(=O)O)C(=O)N[C@H](C(=O)N[C@@H](CO)C(=O)N[C@@H](CCC(N)=O)C(=O)N[C@H](C(=O)N[C@@H](CCC(N)=O)C(=O)N[C@@H](CC(=O)O)C(=O)N1CCC[C@H]1C(=O)N[C@@H](CC(N)=O)C(=O)N[C@@H](CC(=O)O)C(=O)N[C@@H](CCC(N)=O)C(=O)N[C@@H](Cc1ccc(O)cc1)C(=O)N[C@@H](CCC(=O)O)C(=O)N1CCC[C@H]1C(=O)N[C@@H](Cc1ccccc1)C(=O)O)C(C)C)C(C)C` [copper-64 labelled] is reported as 1.46 ± 0.3 %ID/g (C57BL/6 male mouse, tumour-naive, bone; 4 h).
`CSCC[C@H](N)C(=O)N[C@@H](C)C(=O)N[C@@H](Cc1c[nH]c2ccccc12)C(=O)N[C@@H](Cc1c[nH]cn1)C(=O)N[C@@H](CC(=O)O)C(=O)N[C@@H](CC(=O)O)C(=O)N[C@@H](CCC(=O)O)C(=O)N[C@@H](CCC(=O)O)C(=O)N[C@@H](Cc1ccccc1)C(=O)N[C@@H](C)C(=O)N[C@@H](CCCNC(=N)N)C(=O)N[C@@H](CCCNC(=N)N)C(=O)N[C@@H](CCCNC(=N)N)C(=O)N[C@@H](CCCNC(=N)N)C(=O)NCCCCCC(=O)NCCCCC(NC(=O)CCCCCNC(=O)[C@H](CCCNC(=N)N)NC(=O)[C@H](CCCNC(=N)N)NC(=O)[C@H](CCCNC(=N)N)NC(=O)[C@H](CCCNC(=N)N)NC(=O)[C@H](C)NC(=O)[C@H](Cc1ccccc1)NC(=O)[C@H](CCC(=O)O)NC(=O)[C@H](CCC(=O)O)NC(=O)[C@H](CC(=O)O)NC(=O)[C@H](CC(=O)O)NC(=O)[C@H](Cc1c[nH]cn1)NC(=O)[C@H](Cc1c[nH]c2ccccc12)NC(=O)[C@H](C)NC(=O)[C@@H](N)CCSC)C(=O)NCCCCC(NC(=O)C(CCCCNC(=O)CCCCCNC(=O)[C@H](CCCNC(=N)N)NC(=O)[C@H](CCCNC(=N)N)NC(=O)[C@H](CCCNC(=N)N)NC(=O)[C@H](CCCNC(=N)N)NC(=O)[C@H](C)NC(=O)[C@H](Cc1ccccc1)NC(=O)[C@H](CCC(=O)O)NC(=O)[C@H](CCC(=O)O)NC(=O)[C@H](CC(=O)O)NC(=O)[C@H](CC(=O)O)NC(=O)[C@H](Cc1c[nH]cn1)NC(=O)[C@H](Cc1c[nH]c2ccccc12)NC(=O)[C@H](C)NC(=O)[C@@H](N)CCSC)NC(=O)CCCCCNC(=O)[C@H](CCCNC(=N)N)NC(=O)[C@H](CCCNC(=N)N)NC(=O)[C@H](CCCNC(=N)N)NC(=O)[C@H](CCCNC(=N)N)NC(=O)[C@H](C)NC(=O)[C@H](Cc1ccccc1)NC(=O)[C@H](CCC(=O)O)NC(=O)[C@H](CCC(=O)O)NC(=O)[C@H](CC(=O)O)NC(=O)[C@H](CC(=O)O)NC(=O)[C@H](Cc1c[nH]cn1)NC(=O)[C@H](Cc1c[nH]c2ccccc12)NC(=O)[C@H](C)NC(=O)[C@@H](N)CCSC)C(N)=O` (some centres unmarked) gave a tissue distribution of 11.9% and 41.1% and 25.8% (C57BL/6 mouse female, skull; dose not given, 6 h; relative to: total).

Excerpt of the above:
For `[2H]C([2H])([18F])[C@]([2H])(N)C(=O)O`, the tissue uptake was ≤ 1 %ID/g (athymic nude mouse, non-bone tissues; 110 min).
